Assay results pooled from the literature.
A part holds a random share of what one study measured.

Sample 1
Target: Interferon regulatory factor 7, full length, phosphomimetic (IRF7, Homo sapiens, UniProt Q92985, residues 1-503, S471D/S472D/S475D/S476D/S477D/S483D/S484D/S487D)
Technique: protein-binding microarray
Form: double-stranded DNA, one strand shown
Matrix: in vitro
Tested at: 2200 nM top
Notes: 60-bp whole probe
Added: salmon DNA 0.4 mg/ml
Baseline: random background probes
Direction: higher = stronger binding
Constant ends, left off below: GCCTAGCAC … GTCTTGATTCGCTTGACGCTGCTG
Residues (chain): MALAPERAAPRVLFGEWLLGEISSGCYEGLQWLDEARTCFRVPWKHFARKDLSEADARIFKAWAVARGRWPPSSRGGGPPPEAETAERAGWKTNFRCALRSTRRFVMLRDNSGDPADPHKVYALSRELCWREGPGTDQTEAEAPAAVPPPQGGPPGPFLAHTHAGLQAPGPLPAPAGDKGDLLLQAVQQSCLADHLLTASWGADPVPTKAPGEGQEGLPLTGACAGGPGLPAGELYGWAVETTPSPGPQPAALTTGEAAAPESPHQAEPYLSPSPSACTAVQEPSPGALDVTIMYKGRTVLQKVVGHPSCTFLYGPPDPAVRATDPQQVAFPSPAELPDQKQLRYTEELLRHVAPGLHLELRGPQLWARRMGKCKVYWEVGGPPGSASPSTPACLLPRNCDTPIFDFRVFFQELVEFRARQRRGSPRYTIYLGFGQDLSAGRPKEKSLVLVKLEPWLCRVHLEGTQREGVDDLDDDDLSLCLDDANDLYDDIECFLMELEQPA
`AACGGTTCCCTTTTCCTGACGTGCTAG` — result for “fitted relative affinity”: 2.65 z-score.
`TTAGAACTGAGTTTCGATTGGTGCTAG` — result for “fitted relative affinity”: 5.43 z-score.
`TTAGGTATCGATACTGGGTTAGTGCTA` — result for “fitted relative affinity”: 0.203 z-score.
`TTAGGTTTCGGGACGGGGTTAGTGCTA`: “fitted relative affinity” 4.24 z-score.
Under “fitted relative affinity”, `TTAGGCTTCCTTTTCCTTTAGTGCTAG` is recorded as 1.74 z-score.

Sample 2
Target: Ras GTPase-activating protein-binding protein 1, RRM domain (G3BP1, Homo sapiens, UniProt Q13283)
UniProt Q13283, sequence (whole entry, looked up): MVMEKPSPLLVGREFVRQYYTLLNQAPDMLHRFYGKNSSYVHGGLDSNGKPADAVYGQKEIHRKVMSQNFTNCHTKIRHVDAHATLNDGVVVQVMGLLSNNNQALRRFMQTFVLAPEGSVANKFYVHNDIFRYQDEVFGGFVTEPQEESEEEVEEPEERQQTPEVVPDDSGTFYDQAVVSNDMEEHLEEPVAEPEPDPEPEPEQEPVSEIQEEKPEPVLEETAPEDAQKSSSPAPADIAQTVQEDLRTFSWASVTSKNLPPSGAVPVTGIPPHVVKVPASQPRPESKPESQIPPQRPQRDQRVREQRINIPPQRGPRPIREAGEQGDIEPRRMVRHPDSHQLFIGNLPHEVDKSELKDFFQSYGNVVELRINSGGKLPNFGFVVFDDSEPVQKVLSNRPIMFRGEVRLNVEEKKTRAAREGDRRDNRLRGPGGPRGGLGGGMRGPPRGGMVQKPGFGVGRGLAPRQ
Technique: RNA Bind-n-Seq
Form: RNA
Matrix: in vitro
Tested at: 1 µM
Notes: whole 134-nt RNA, ends assumed
Added: 150 mM KCl
Baseline: input library
Direction: higher = stronger binding
With `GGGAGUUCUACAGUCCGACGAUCUCCUGUGCUACACAUCGUAUGUACCGAAUCGGGGUGGGGAAAAAGGGGUUUUUUUGGGGAAAGUAUUAUGUUACGCCGUUCGGAUCUGCAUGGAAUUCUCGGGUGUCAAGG` the log2 enrichment was 0.814.
For `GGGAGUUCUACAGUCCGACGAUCCCUCAAGUCCUGUGCUACACAUCGUAUGUACCGAAUCGGGGAGGAGGGGAGGGAAAGUAUUAUGUUACGCCGUUCGGAUCUGCACUUCCAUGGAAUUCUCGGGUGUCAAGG`, the log2 enrichment was 0.148.
With `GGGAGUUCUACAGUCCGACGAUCUGCGGGCCGAGAAUCGGGAGCUGGGCAAACGCGUACAGGCACUGCAGGAGGAGAGUCGCUACCUACGGGCAGUCUUAGCCAACGAGACUGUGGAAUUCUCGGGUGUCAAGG` the log2 enrichment was -0.666.
For `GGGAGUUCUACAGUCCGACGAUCCCUCAAGUCCUGUGCUACACAUCGUAUGUACCGAAUCGGGGAGGGGAGGAGGAAAGUAUUAUGUUACGCCGUUCGGAUCUGCACUUCCAGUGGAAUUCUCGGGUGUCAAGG`, the log2 enrichment was -0.326.
The log2 enrichment of `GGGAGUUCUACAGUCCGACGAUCCCUGUGCUACACAUCGUAUGUACCGAAUCGGGUUUUUUGGGUUUUUUGGGGUUUUUUGGGAAAGUAUUAUGUUACGCCGUUCGGAUCUGCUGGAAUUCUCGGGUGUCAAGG` is reported as -0.18.
With `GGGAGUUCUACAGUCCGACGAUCUUUGUGAGACAUGUGAAAGGAGGACAUGGUCACAGUCAUGGACAUGGACACGCUCACAGUCAUACACGUGGAAGUCAUGGACAUGGAAGAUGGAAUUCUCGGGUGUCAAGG` the log2 enrichment was -0.209.

Sample 3
Target: Sal-like protein 4, full length isoform A (SALL4, Homo sapiens, UniProt Q9UJQ4, residues 1-1053)
UniProt Q9UJQ4, sequence (whole entry, looked up): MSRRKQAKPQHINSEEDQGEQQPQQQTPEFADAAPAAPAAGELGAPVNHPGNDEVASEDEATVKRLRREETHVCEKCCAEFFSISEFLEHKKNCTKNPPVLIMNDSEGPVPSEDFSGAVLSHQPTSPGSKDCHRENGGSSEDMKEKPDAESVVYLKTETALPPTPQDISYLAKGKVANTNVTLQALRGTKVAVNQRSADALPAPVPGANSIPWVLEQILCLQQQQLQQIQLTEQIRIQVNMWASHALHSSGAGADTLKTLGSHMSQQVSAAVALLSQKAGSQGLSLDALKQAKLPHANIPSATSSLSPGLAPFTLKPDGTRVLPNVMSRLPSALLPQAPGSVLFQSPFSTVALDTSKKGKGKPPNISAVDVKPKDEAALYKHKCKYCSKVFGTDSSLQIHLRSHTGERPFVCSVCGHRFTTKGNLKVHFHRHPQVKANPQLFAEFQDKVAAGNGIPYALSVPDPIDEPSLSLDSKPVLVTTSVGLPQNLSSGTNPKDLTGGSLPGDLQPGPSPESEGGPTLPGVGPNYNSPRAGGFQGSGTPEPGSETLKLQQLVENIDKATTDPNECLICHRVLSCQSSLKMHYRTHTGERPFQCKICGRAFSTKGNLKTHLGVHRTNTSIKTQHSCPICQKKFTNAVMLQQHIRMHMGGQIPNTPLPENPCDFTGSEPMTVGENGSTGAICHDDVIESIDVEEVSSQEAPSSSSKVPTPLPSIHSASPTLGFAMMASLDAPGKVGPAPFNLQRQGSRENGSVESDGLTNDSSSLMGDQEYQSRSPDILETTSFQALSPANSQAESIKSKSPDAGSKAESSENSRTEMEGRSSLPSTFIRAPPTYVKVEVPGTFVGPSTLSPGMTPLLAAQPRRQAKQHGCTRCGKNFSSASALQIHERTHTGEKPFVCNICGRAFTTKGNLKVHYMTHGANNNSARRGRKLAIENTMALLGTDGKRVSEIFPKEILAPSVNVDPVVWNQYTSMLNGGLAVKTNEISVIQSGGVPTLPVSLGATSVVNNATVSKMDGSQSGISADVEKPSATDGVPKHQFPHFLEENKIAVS
Technique: universal PBM
Form: double-stranded DNA, one strand shown
Matrix: in vitro
Tested at: 600 nM
Notes: 8-mer, flanks averaged, mean of replicates
Direction: higher = stronger binding
`AGGCCGAC` gave an E-score of -0.423.
For `CGATGAAC`, the E-score was -0.119.
`TTACGGAA` has an E-score of 0.132.
For `ATCGCTCG`, the E-score was -0.072.

Further values, each from its own experiment
With `PhoQ, residues 284 288 289 292 302 303 SSTLSG` the fold induction was 0.798 (PhoP, residues 12 14 15 18 19 DLLYY (Escherichia coli, UniProt P23836); Sort-seq, refers to: YFP reporter; E. coli; PhoQ-PhoP variant library, added: 10 µM Mg2+; baseline: high Mg2+ state, higher = stronger signaling).

Excerpt of the above (sample 2):
For `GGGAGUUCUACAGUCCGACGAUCCCUCAAGUCCUGUGCUACACAUCGUAUGUACCGAAUCGGGGAGGAGGGGAGGGAAAGUAUUAUGUUACGCCGUUCGGAUCUGCACUUCCAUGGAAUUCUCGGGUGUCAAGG`, the log2 enrichment was 0.148.
With `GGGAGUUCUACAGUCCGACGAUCUGCGGGCCGAGAAUCGGGAGCUGGGCAAACGCGUACAGGCACUGCAGGAGGAGAGUCGCUACCUACGGGCAGUCUUAGCCAACGAGACUGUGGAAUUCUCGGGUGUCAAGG` the log2 enrichment was -0.666.
